Assay results pooled from the literature.
A part holds a random share of what one study measured. Changes are numbered by the printed parent chain.

Sample 1 — method: RNAcompete; form: RNA; medium: in vitro; tested at: 20 nM; notes: 7-mer, probes averaged, single round; relative to: mean of 7-mers; direction: higher = stronger binding; quantity: 7-mer Z-score
Target: PABPC1L2, full length, GST fusion (mouse, UniProt A0ABA7IW68)
Construct (chain): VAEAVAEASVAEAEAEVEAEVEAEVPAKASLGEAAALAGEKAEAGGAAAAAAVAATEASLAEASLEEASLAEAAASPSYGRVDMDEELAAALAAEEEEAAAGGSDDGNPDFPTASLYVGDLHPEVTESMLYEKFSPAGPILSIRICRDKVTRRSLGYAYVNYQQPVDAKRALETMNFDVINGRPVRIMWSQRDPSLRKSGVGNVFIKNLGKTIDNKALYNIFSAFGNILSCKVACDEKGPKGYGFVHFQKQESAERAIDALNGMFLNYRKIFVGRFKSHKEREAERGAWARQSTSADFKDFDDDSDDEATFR
ACGAAGG: 0.124
UCCAAUC: -0.258
UCCAAUU: -0.121
AGAUGAG: -0.135
CCGUGUC: -0.481
UACAUGA: -0.0174
AACUGUA: 0.153
UUUACUG: 0.0388

Sample 2 — target: CRIPT, C-terminal peptide; method: DHFR complementation, deep sequencing; medium: yeast; relative to: wild type; direction: higher = weaker binding; quantity: binding free energy change
Notes: single substitutions, model-inferred values
Starting sequence: ERBIN, PDZ domain 1 (human); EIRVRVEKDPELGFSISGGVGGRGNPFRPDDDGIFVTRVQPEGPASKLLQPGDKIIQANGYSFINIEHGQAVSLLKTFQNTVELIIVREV; partner TKNYKQTSV
P44D: 0.967 kcal/mol
D31L: 0.94 kcal/mol
T77K: 0.0331 kcal/mol
A45E: 1.49 kcal/mol
I16K: 1.43 kcal/mol
E67P: 0.0689 kcal/mol
S17L: 1.4 kcal/mol
F27D: 1.05 kcal/mol

Sample 3 — method: RNA Bind-n-Seq; form: RNA; medium: in vitro; tested at: 1 µM; notes: whole 134-nt RNA, ends assumed; added: 150 mM KCl; relative to: input library; direction: higher = stronger binding; quantity: log2 enrichment
Target: Ras GTPase-activating protein-binding protein 1, RRM domain (G3BP1, Homo sapiens, UniProt Q13283)
Chain of UniProt Q13283 (whole entry, looked up): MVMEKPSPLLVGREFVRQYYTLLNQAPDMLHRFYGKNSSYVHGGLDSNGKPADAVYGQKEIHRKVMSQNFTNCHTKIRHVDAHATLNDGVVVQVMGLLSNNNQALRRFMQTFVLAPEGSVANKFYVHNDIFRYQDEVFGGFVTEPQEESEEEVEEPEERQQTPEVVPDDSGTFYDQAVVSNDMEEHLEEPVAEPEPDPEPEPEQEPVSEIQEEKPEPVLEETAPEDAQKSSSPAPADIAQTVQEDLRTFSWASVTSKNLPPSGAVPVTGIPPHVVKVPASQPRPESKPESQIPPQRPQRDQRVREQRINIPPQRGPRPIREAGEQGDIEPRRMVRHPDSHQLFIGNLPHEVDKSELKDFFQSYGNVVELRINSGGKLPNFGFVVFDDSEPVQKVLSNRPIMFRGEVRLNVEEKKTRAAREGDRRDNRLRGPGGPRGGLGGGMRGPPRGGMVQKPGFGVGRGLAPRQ
All sequences stand within: GGGAGUUCUACAGUCCGACGAUC … UGGAAUUCUCGGGUGUCAAGG
AGUCCUGUGCUACACAUCGUAUGUACCGAAUCGGGAAAGGGAAAGGGUUUUUUUGGGAAAGUAUUAUGUUACGCCGUUCGGAUCUGCACU: 0.303
UGGCCCUGGUGGCAUGCGGGGAGGAAGAGGUGGCCUCAUGGAUCGUGGUGGUCCCGGUGGAAUGUUCAGAAGUGGCCGUGGUGGAGACAG: 1.39
CACAGACAACACGCACCCACACAGACACAGAGGGAAGGGGUUGGGUUGGGGACAGGGUGCACAGCAGGGCGGGGUAGGACCCCAGCCCCU: -0.00646
CCUCAAGUCCUGUGCUACACAUCGUAUGUACCGAAUCGGAGGUUUGGAAAGGAAAGUAUUAUGUUACGCCGUUCGGAUCUGCACUUCCAG: -0.247
ACCAUGCAGGUGGGCAUCUUUGGGAAGUGGGGCAAGGGGGGGAUAGGGAGGGGGGUAACACUUUGGGAACAAAAGGUCCCAGGUCGUUUC: -0.378
AGUCCUGUGCUACACAUCGUAUGUACCGAAUCGGUUUUUGGAAAAAGGUUUUUUUGGAAAGUAUUAUGUUACGCCGUUCGGAUCUGCACU: -0.404
AAGUCCUGUGCUACACAUCGUAUGUACCGAAUCGGGAGGGAAAAAGGGAAAAAGGGAAAGUAUUAUGUUACGCCGUUCGGAUCUGCACUU: 0.724
CCUGUGCUACACAUCGUAUGUACCGAAUCGGGGAAAAAAGGAAAAAAGGGAAAAAAGGGGAAAGUAUUAUGUUACGCCGUUCGGAUCUGC: -0.0216

Mixed results
Starting sequence: viral docking peptide; TSVRRALFTGGSD; partner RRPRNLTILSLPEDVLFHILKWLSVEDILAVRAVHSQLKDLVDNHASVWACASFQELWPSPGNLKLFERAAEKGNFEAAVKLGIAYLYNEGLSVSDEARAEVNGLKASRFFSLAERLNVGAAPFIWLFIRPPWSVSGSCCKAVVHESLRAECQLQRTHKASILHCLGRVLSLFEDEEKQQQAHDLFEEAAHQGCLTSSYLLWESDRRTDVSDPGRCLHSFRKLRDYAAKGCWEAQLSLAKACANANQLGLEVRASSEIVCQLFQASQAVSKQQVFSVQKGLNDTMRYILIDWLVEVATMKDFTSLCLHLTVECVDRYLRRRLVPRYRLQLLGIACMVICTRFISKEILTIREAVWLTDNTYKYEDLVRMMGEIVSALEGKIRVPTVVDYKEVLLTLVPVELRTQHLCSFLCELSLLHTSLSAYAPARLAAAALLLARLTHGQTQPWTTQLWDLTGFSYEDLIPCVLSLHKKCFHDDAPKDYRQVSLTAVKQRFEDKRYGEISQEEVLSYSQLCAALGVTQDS
L7H — normalised enrichment score (CCNF, cyclin fold, Cln2 fusion (human); yeast growth competition, sequencing; yeast; strong parent motif; relative to: not given, higher = stronger binding): -0.109
